Experimental data pooled from the literature.
“And” joins repeats or separate records; there may be more than shown. ± gives the spread as reported.

| Molecule | test | system | conditions | scale | measurement | result |
| --- | --- | --- | --- | --- | --- | --- |
| CN(C)C(=O)N[C@H]1CC[C@H](CCN2CCN(c3cccc(Cl)c3Cl)CC2)CC1 |  | Sprague-Dawley rat, ouabain-induced mania | ip, 0.5 mg/kg daily, 7 days, squares in 30 min, added: ouabain icv single |  | open field activity | 110 ± 19.2 squares crossed |
| Cc1ccc(NC(=O)c2ccc(CN3CCN(C)CC3)cc2)cc1Nc1nccc(-c2cncc(-c3oncc3C)c2)n1 |  | mild-to-moderate Parkinson's disease patients | oral, 100 mg once daily, day 7, on anti-Parkinson medication | direction not given | PGI-S score | 2.4 ± 0.5 |
| cilengitide |  | Sprague-Dawley rats, TNBS colitis, colonic smooth muscle cells | ip, 18 mg/kg/day, 42 d |  | active TGF-β1 level | 1.42 ± 0.03 ng/mg protein |
| O=C(NC[C@H]1CN(c2ccc(N3CCOCC3=O)cc2)C(=O)O1)c1ccc(Cl)s1 |  | human, moderate renal impairment | 10 mg, added: steady-state erythromycin | relative to: same subjects, compound alone | prothrombin time Emax increase | ~20% |
| N[C@@H](CC(=O)N1CCn2c(nnc2C(F)(F)F)C1)Cc1cc(F)c(F)cc1F |  | type 2 diabetes patients on metformin | oral, 100 mg once daily, 28 weeks, sitting, mean of 2 readings, added: exenatide 2.0 mg weekly subcutaneous |  | heart rate | 74.8 beats/min |
| COc1ccc(-n2c(SC/C(=N/O)c3ccc(C)cc3)nnc2-c2nnn(-c3ccc(S(N)(=O)=O)cc3)c2C)cc1 | Griess | phosphate buffer-methanol | 100 µM, 1 h, pH 7.4, 37 °C, added: N-acetylcysteine 0.5 mM | relative to: theoretical maximum release | NO released | 2.87% |
| PACAP | qRT-PCR, GAPDH-normalised, measured: Somatostatin | APP V717I transgenic mouse, 6 months old, brain | intranasal, dose not given, 3 months | relative to: vehicle-treated mice | mRNA level | 138 ± 9.7% |
| insulin aspart | euglycemic clamp | healthy humans | subcutaneous, 0.2 IU/kg, 0 to 8 h, before propensity score matching |  | glucose infusion AUC | 1460 ± 396 mg/kg |
| CCC1=C(C)CN(C(=O)NCCc2ccc(S(=O)(=O)NC(=O)N[C@H]3CC[C@H](C)CC3)cc2)C1=O | oral glucose tolerance test | healthy male humans, serum | oral, steady state, added: 75 g glucose |  | maximum serum glucose | 134 ± 26.9 mg/dL |
| CC[C@H](C)[C@H](NC(=O)[C@H](CCC(N)=O)NC(=O)[C@H](Cc1c[nH]cn1)NC(=O)[C@H](C)NC(=O)[C@H](CC(C)C)NC(=O)[C@H](CCCCN)NC(=O)[C@H](CCC(N)=O)NC(=O)[C@@H](NC(=O)[C@@H](NC(=O)[C@@H]1CSSC[C@H](NC(=O)CNC(=O)[C@H](Cc2ccccc2)NC(=O)[C@H](CO)NC(=O)[C@H](CCCNC(=N)N)NC(=O)[C@H](CC(C)C)NC(=O)CNC(=O)[C@H](CCC(N)=O)NC(=O)[C@H](Cc2ccccc2)NC(=O)[C@H](CC(N)=O)NC(=O)[C@H](CC(N)=O)NC(=O)[C@H](CCSC)NC(=O)[C@H](CO)NC(=O)[C@H](CCC(N)=O)NC(=O)[C@H](CCCNC(=N)N)NC(=O)[C@@H](N)Cc2ccc(O)cc2)C(=O)N[C@@H](CCCNC(=N)N)C(=O)N[C@@H](Cc2ccccc2)C(=O)NCC(=O)N[C@@H]([C@@H](C)O)C(=O)N1)[C@@H](C)O)C(C)C)C(=O)N[C@@H](Cc1ccc(O)cc1)C(=O)N[C@@H](CCC(N)=O)C(=O)N[C@@H](Cc1ccccc1)C(=O)N[C@H](C(=O)N[C@@H](CC(=O)O)C(=O)N[C@@H](CCCCN)C(=O)N[C@@H](CC(=O)O)C(=O)N[C@@H](CCCCN)C(=O)N[C@@H](CC(=O)O)C(=O)N[C@@H](CC(N)=O)C(=O)N[C@H](C(=O)N[C@@H](C)C(=O)N1CCC[C@H]1C(=O)N[C@@H](CCCNC(=N)N)C(=O)N[C@@H](CO)C(=O)N[C@@H](CCCCN)C(=O)N[C@H](C(=O)N[C@@H](CO)C(=O)N1CCC[C@H]1C(=O)N[C@@H](CCC(N)=O)C(=O)NCC(=O)N[C@@H](Cc1ccc(O)cc1)C(N)=O)[C@@H](C)CC)C(C)C)[C@@H](C)O |  | patients, biologic-resistant Crohn's disease | intravenous infusion, 15 ng/kg/min, 6 weeks, unit not given, added: biologic | relative to: baseline | change in CDAI | -65 ± 76 |
| polymyxin B |  | EYPC vesicles | 10 µg/mL, 250 s, pH 7.4, 25 °C | relative to: Triton X-100 | carboxyfluorescein leakage | 2% |
| Cc1c(C(=O)Nc2ccc(N3C[C@@H](C)O[C@@H](C)C3)nc2)cccc1-c1ccc(OC(F)(F)F)cc1 | cell growth, 3H-thymidine uptake | Gli2-amplified resistant medulloblastoma cells, Gli2 siRNA knock-down, mouse | ex vivo |  | IC50 | 100 nM |
| CS/C(S)=N/CCCC[S+](C)[O-] (racemic) | RT-PCR, measured: Gstp1 | rat, liver | oral gavage, 200 mg/kg, 96 h, dosed for four days | relative to: vehicle | mRNA fold change | 1.61 |
| cotadutide | measured: CGM glucose 70 to 180 mg/dL | human, type 2 diabetes, CKD | dose not given, day 32 | relative to: baseline | change in time in range | 14.8% |
| CCCOc1ccc(S(=O)(=O)NCCC2CCCN2C)cc1-c1nc2c(CCC)nn(C)c2c(=O)[nH]1 (stereo not drawn) | blood pool echocardiography | human adolescents after Fontan palliation | oral, 87.5 mg once daily, day 5 | relative to: baseline, negative is improvement | change in myocardial performance index | -0.076 ± 0.14 |
| C[C@H]1CC[C@H](n2c3cnccc3c3cnc(Nc4ccc5c(n4)CCN(C(=O)CO)C5)nc32)CC1 | STAT5 Tyr694 phosphorylation | mouse, orthotopic MOLM13-Luc tumour, femur | plasma concentration, model estimate |  | IC50 | 6.08 nM |
| Polymyxin B |  | human whole blood | 250 ng/mL, 4 h, 37 °C, added: E. coli LPS 0.5 ng/mL | relative to: LPS without compound | IL-8 release | 49.1 ± 11% |
| NS(=O)(=O)c1ccc(-n2nc(C(F)(F)F)cc2-c2ccc(F)cc2F)cc1 | measured: lameness score | Beagle dog, urate crystal arthritis, plasma |  |  | minimum effective concentration | 536 ng/mL |
| SIYNFEKL | flow cytometry, measured: CD44hi CD8+ T cells | peptide, OT-I CD8+ T cells, mouse | dose not given, primed 5 days, restimulated 100 ng/mL OVA257, added: no TGF-β1 |  | TNF-α only cells | 0% |
| CCOC(F)(F)c1nnc2cnc(-c3cnc(OCC(F)(F)F)c(F)c3)cn12 | protection against tonic extension seizures, maximal electroshock seizure test | male CD-1 mice | oral |  | ED50 | 2 mg/kg |

| Molecule | test | system | conditions | scale | measurement | result |
| --- | --- | --- | --- | --- | --- | --- |
| Cc1c2ccccc2c(C)c2c1ccc1ccccc12 | measured: adrenal hemorrhage | rat | oral, in oil, against adrenal apoplexy from challenge, added: challenge 5 mg iv |  | minimum protective dose | 2 mg |
| Cn1c(=O)c2[nH]cnc2n(C)c1=O | agonist | Rhinella marina urinary bladder |  | relative to: deamino-oxytocin | maximal response fraction | 0.78 |
| CCc1occc(=O)c1OC(=O)c1ccc(O)c(OC)c1 |  | Sprague-Dawley rat, common carotid artery | dose not given, 5 days twice daily, shear-induced thrombosis |  | thrombus protein content | 10 µg |
| COc1cc(/C=C/C(O)=C/C(=O)/C=C/c2ccc(OCc3ccccc3)c(OC)c2)ccc1O | IL-6 secretion, ELISA | peritoneal macrophages, C57BL/6 mice | added: LPS 10 ng/mL |  | IC50 | 1810 ± 1310 nM |
| Cn1cnc(C[C@H](NC(=O)[C@@H]2CCC(=O)C2)C(=O)N2CCC[C@H]2C(N)=O)c1 |  | Swiss albino mice | intravenous, 10 µmol/kg, added: pentobarbital | relative to: control | decrease in sleeping time | 68.3% and 68.6% |
| COc1ccc2c(c1)c(CC(=O)O)c(C)n2C(=O)c1ccc(Cl)cc1 | multiplex bead immunoassay, measured: GM-CSF | CD-1 mice, serum | ip, 20 mg/kg, three-injection regimen, added: LPS 3 mg/kg |  | cytokine level | 57.9 ± 20.8 pg/mL |
| O=C(CSc1nc(-c2ccccc2)c(-c2ccccc2)[nH]1)Nc1nccs1 |  | rat cardiac trabeculae | concentration not given, added: pCa 4.0 | relative to: control, 6% decline corrected | maximal force reduction | ~2% |
| C[C@H]1C[C@H]2CSC(N)=N[C@@]2(c2nc(NC(=O)c3ccc(OC(F)F)cn3)cs2)CO1 | measured: CSF total Aβ | healthy adults | 275 mg once daily, 14 days, day 15 | relative to: placebo-adjusted baseline | change from baseline | -85.4% |
| insulin aspart | euglycemic clamp | human, type 1 diabetes | sc, 1 × 18 IU single bolus |  | time to 10% of maximum GIR | 30 ± 10 min |
| O=C(O)Cc1ccccc1Nc1c(Cl)cccc1Cl |  | rat carrageenan paw oedema | 10 mg/kg, 3 h |  | paw volume increase | 0.23 ± 0.02 mm |
| YEGKK | neovascularization, [3H]thymidine labelling | peptide, BALB/c mouse female, sponge implant granulation tissue | 100 µM, day 14 |  | labelled endothelial cells | 15.2% |
| Cc1cc(C)c(/C=C2\C(=O)Nc3ccccc32)[nH]1 | MRI | human | dose not given, 6.8 months |  | tumour volume | 65.8 cm³ |
| Cc1c(OCC(F)(F)F)ccnc1C[S@@+]([O-])c1nc2ccccc2[nH]1 |  | healthy human | oral, single dose, 60 mg, modified release, 12 to 24 h, crossover vs esomeprazole |  | time with intragastric pH above 4 | 60% |
| gamma-MSH |  | Sprague Dawley rat, urethane-anaesthetised | intravenous, 15 nmol, 10% above baseline |  | MAP response onset time | 21.6 ± 2.01 s |
| Cc1ccc(/C(CSc2nnc(-c3nnn(-c4ccc(S(N)(=O)=O)cc4)c3C)n2-c2ccccc2)=N\O)cc1 | Griess | phosphate buffer-methanol | 100 µM, 1 h, pH 7.4, 37 °C, added: N-acetylcysteine 0.5 mM | relative to: theoretical maximum release | NO released | 1.66% |
| SIIVFEKL | flow cytometry, measured: CD44hi CD8+ T cells | peptide, OT-I CD8+ T cells, mouse | 1 µg/mL loading, primed 5 days, TGF-β1 from day 2 onward, added: 20 ng/mL TGF-β1 |  | triple cytokine producers | 24.7% |
| O=C(/C=C/c1ccc(O)c(O)c1)c1ccc(O)cc1O |  | ethanol | 20 µM, 30 min |  | DPPH scavenging | > 80% |
| O=C(O)CSc1nnc(C23CC4CC(CC(C4)C2)C3)n1-c1ccccc1 |  | rat carrageenan paw oedema | intraperitoneal, 40 mg/kg, 4 h after carrageenan | relative to: vehicle control | paw oedema inhibition | > 50% |
| N[C@@H](CC(=O)N1CCn2c(nnc2C(F)(F)F)C1)Cc1cc(F)c(F)cc1F | oral glucose tolerance test | C57BL/6J mice, high-fat diet-induced obese, plasma | oral, 1 mg/kg once daily, week 2 of treatment, AUC 0 to 120 min | relative to: vehicle | glucose AUC reduction | 29% |

For quick reference, copied from above:
| Molecule | test | system | conditions | scale | measurement | result |
| --- | --- | --- | --- | --- | --- | --- |
| gamma-MSH |  | Sprague Dawley rat, urethane-anaesthetised | intravenous, 15 nmol, 10% above baseline |  | MAP response onset time | 21.6 ± 2.01 s |
| Cc1ccc(NC(=O)c2ccc(CN3CCN(C)CC3)cc2)cc1Nc1nccc(-c2cncc(-c3oncc3C)c2)n1 |  | mild-to-moderate Parkinson's disease patients | oral, 100 mg once daily, day 7, on anti-Parkinson medication | direction not given | PGI-S score | 2.4 ± 0.5 |
